Literature values that unrelated publications cite.
Each numbered part shows a few of the values that one paper quotes.
Chain of UniProt P0ACB0 (whole entry, looked up): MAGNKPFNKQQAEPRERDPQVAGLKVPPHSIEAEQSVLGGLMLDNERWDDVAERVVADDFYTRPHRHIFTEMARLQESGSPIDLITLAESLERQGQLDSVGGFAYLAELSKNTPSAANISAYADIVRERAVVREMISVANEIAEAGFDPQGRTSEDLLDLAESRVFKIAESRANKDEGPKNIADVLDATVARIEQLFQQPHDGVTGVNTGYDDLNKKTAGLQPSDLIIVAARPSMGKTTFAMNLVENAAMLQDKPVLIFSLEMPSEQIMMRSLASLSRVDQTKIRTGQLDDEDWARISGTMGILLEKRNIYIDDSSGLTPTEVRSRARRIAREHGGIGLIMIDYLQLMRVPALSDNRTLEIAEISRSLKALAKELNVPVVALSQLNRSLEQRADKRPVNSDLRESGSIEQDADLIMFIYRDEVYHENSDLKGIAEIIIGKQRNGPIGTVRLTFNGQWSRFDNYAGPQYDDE

Series 1
Organism: Cryptosporidium parvum
Method: high-throughput screen
Concentration: concentration not given
| SMILES | activity |
| --- | --- |
| COc1ccccc1OCC(O)COC(N)=O (stereo not drawn) | inactive |
| CCC1=C[C@@H]2CN(C1)Cc1c([nH]c3ccccc13)[C@@](C(=O)OC)(c1cc3c(cc1OC)N(C)[C@H]1[C@@](O)(C(=O)OC)[C@H](OC(C)=O)[C@]4(CC)C=CCN5CC[C@]31[C@@H]54)C2.O=C(O)C(O)C(O)C(=O)O.O=C(O)C(O)C(O)C(=O)O | inactive |
| CN(C)CC[C@@H](c1ccc(Cl)cc1)c1ccccn1 | inactive |

Other studies, line by line
| SMILES | tested on | read-out | method | medium | notes | endpoint | result |
| --- | --- | --- | --- | --- | --- | --- | --- |
| CN(C(=O)c1ccccc1)c1cc(N(C)c2ccc3c(c2)CCc2ccc(C(=O)NCCN4CCOCC4)cc2C3=O)ccc1F | MAPK14 | – | cell-based | – | – | IC50 | 11300 nM |
| Nc1ncnc2c1ncn2[C@@H]1O[C@H](COP(=O)(O)OP(=O)(O)OP(=O)(O)O)[C@H]2OC3(O[C@H]21)C([N+](=O)[O-])=CC(=[N+]([O-])O)C=C3[N+](=O)[O-] (stereo partly drawn) | Replicative DNA helicase DnaB (dnaB, Escherichia coli, UniProt P0ACB0) | – | intrinsic fluorescence quenching | – | hexagon model, six sites | Kd | 1690 nM |
| COc1cc(-c2cn(C3CCc4c(F)cccc4N(CC(F)(F)F)C3=O)nn2)ccc1-n1cnc(C)c1 (stereo not drawn) | SLC6A4 | – | – | – | – | IC50 | 13 nM |
| CC(CO)(CO)CO | – | – | – | water | – | solubility limit | > 2500 mM |
| CN(C)c1ncnc(-c2ccc3nc(Nc4cc(CN5CCN(C(=O)CC(F)(F)F)CC5)ccn4)[nH]c3c2)c1Cl | TBK1 | – | – | – | low ATP | IC50 | 1140 nM |
| Cc1cc(Nc2nccc(C)n2)cc(-c2cnc([C@@]3(O)CC[C@H](C(=O)O)C(C)(C)C3)s2)c1 | SYK (human) | enzyme activity | – | – | – | IC50 | 0.9 nM |

Repeated from above (other studies, line by line):
| SMILES | tested on | read-out | method | medium | notes | endpoint | result |
| --- | --- | --- | --- | --- | --- | --- | --- |
| CN(C)c1ncnc(-c2ccc3nc(Nc4cc(CN5CCN(C(=O)CC(F)(F)F)CC5)ccn4)[nH]c3c2)c1Cl | TBK1 | – | – | – | low ATP | IC50 | 1140 nM |
